Assay results from different studies.
± gives the spread as reported.
UniProt P78536, sequence (whole entry, looked up): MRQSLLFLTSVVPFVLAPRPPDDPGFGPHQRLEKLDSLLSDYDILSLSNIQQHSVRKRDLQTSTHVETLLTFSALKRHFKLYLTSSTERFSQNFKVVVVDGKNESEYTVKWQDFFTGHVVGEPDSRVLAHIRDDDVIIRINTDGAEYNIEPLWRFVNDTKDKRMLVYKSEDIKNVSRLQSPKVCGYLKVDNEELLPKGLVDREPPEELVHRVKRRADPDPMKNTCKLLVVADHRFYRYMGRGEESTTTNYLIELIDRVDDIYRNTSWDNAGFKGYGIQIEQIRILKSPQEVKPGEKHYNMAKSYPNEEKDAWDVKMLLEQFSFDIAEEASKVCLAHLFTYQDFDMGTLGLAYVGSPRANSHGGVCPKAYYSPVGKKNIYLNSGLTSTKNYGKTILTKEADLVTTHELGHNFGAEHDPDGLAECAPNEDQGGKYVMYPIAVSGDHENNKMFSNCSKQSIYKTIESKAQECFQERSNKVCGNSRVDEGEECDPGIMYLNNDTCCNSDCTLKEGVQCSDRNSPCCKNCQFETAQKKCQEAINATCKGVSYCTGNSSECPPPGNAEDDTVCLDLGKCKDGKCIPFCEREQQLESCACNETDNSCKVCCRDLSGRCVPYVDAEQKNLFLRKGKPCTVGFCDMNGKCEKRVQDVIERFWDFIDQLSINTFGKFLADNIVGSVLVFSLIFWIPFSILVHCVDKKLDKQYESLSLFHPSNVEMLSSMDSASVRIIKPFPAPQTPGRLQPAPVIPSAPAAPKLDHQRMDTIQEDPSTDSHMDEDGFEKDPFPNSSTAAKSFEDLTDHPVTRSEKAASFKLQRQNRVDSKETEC
UniProt Q99828, sequence (whole entry, looked up): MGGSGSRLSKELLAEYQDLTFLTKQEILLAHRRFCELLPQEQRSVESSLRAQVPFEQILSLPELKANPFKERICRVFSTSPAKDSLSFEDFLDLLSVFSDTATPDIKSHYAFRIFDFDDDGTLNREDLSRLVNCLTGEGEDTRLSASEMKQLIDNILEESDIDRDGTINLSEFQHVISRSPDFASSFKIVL
UniProt P50554, sequence (whole entry, looked up): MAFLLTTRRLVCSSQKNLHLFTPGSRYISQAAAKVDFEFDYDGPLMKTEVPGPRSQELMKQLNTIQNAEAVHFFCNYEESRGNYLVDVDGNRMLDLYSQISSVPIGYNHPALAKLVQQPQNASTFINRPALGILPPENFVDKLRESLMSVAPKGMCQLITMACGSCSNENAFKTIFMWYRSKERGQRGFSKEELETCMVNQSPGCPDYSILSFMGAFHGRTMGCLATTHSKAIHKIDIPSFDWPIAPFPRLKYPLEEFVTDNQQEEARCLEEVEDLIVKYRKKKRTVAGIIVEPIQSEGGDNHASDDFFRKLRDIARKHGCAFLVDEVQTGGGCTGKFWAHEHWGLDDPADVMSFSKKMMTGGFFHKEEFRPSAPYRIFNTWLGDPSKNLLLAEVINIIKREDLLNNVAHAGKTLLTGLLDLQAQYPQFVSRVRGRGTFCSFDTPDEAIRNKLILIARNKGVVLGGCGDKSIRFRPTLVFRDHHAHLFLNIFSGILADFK
UniProt Q01959, sequence (whole entry, looked up): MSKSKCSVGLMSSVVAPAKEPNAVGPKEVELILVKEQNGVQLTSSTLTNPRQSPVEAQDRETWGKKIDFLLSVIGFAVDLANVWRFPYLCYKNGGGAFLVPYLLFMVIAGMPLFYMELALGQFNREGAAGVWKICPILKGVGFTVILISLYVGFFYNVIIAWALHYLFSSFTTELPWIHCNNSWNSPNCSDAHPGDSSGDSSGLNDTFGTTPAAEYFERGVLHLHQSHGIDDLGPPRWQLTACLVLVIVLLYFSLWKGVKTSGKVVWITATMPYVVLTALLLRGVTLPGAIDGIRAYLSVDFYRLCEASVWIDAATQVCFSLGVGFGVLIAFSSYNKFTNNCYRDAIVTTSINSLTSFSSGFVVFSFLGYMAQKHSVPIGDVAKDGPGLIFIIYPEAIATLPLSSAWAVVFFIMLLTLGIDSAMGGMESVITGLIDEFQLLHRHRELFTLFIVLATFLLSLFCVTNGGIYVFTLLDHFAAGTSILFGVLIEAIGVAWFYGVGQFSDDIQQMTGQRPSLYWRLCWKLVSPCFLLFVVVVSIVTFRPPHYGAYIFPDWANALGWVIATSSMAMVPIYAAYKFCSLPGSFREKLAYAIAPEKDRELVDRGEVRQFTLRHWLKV
UniProt P30550, sequence (whole entry, looked up): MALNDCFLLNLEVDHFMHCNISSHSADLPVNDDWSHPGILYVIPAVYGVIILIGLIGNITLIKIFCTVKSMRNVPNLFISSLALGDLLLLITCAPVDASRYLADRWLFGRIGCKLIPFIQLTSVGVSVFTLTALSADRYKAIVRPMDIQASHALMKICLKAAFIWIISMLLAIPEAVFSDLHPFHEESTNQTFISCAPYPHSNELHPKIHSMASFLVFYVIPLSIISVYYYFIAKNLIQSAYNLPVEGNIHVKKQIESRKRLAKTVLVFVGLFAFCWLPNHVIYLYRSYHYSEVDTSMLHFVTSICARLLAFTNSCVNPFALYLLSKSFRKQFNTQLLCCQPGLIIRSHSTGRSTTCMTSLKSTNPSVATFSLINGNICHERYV
UniProt P97612, sequence (whole entry, looked up): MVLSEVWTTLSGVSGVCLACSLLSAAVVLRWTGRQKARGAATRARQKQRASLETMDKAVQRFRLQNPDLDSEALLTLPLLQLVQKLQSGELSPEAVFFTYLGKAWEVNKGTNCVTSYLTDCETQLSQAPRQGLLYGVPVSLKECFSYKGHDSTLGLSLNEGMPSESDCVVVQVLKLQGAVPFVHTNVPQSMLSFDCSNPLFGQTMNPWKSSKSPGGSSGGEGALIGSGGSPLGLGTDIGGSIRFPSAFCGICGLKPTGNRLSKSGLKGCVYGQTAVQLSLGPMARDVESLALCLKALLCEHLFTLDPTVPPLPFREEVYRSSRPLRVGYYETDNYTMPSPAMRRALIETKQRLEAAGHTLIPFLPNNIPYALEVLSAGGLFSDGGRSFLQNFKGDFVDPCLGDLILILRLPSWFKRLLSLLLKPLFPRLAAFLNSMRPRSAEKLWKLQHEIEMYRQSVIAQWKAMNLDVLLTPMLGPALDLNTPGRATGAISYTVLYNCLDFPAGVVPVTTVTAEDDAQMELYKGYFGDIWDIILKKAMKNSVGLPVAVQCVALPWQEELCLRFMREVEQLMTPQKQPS
UniProt Q6GIL5, sequence (whole entry, looked up): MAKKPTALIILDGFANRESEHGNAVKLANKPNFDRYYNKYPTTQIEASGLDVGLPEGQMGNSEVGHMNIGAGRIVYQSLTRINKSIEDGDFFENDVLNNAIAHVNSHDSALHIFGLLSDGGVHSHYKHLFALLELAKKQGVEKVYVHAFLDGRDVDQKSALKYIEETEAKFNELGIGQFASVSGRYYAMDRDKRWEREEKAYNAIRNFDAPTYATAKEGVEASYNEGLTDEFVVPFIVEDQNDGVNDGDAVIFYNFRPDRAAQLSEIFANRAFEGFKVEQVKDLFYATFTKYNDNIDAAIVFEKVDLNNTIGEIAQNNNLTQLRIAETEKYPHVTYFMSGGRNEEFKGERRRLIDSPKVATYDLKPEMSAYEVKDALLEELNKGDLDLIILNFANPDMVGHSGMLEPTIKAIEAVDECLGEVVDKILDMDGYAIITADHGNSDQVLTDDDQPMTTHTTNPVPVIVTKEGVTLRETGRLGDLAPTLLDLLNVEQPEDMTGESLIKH
UniProt P05804, sequence (whole entry, looked up): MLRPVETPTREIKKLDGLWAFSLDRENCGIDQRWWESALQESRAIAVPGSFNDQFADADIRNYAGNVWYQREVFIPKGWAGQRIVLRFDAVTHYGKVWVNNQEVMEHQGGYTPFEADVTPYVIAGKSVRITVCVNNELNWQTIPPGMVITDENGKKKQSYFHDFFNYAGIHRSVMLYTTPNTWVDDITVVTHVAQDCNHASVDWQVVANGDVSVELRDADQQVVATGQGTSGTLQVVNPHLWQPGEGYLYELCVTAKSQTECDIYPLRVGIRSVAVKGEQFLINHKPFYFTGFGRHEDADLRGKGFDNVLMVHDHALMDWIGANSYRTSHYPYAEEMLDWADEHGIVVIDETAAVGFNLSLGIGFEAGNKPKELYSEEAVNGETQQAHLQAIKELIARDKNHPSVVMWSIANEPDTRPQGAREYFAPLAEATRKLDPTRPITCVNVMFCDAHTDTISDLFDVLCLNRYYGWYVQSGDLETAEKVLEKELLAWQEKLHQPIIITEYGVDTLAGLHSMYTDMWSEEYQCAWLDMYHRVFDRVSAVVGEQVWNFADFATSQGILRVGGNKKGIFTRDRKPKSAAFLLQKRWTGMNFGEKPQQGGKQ
UniProt C7FF04, sequence (whole entry, looked up): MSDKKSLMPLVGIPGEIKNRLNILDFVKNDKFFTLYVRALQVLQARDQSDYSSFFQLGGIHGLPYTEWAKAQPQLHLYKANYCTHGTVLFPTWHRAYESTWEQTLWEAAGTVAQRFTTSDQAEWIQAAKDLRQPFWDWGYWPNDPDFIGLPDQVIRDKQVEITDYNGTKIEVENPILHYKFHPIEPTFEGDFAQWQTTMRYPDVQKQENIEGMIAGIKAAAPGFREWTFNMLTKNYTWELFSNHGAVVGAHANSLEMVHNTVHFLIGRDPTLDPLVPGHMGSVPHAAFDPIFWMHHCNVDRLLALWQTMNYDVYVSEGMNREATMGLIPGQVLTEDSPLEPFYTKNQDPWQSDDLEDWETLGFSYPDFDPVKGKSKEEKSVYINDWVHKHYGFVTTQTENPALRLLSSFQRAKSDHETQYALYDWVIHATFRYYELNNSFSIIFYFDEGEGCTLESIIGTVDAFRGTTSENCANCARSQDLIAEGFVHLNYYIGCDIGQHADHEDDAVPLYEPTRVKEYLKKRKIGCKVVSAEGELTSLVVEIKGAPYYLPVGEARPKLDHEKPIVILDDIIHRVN

O=C(c1cccc(-n2cccc2)c1)N1CCCN(S(=O)(=O)c2ccc(F)cc2)CC1 — IC50 (Genome polyprotein, 3C protease (rhinovirus B14, UniProt P03303); 3C protease activity, SAMDI-MS; human rhinovirus): 1670 nM
CN[C@](C)(C[18F])C(=O)O — tracer uptake (DU-145 tumour model; host not given, blood; 30 min, tumour-bearing): 2 %ID/g
COC(=O)C=CCCC(NC(=O)c1ccncc1C(=O)O)C(=O)NC(C(=O)N1CC(=O)CC1C(=O)NC(C(=O)NC(C(N)=O)C1CCCCC1)C1CCCCC1)C(C)(C)C (centres unmarked) — IC50 (Coagulation factor XIII A chain (Crab-eating macaque, UniProt A0A7N9D9X7); transamidation activity, inhibitor; cynomolgus enzyme, together with: dansylcadaverine into N,N-dimethylcasein): 19 ± 0.6 nM
O=C(NCCCCCCn1ccc2ccccc21)Oc1ccccc1 — IC50 (Fatty-acid amide hydrolase 1 (Faah, Rattus norvegicus, UniProt P97612); rat brain homogenate; 60 min, 37 °C): 85 nM
CC(C)[C@@H]1NC(=O)[C@H](CCC(N)=O)NC(=O)[C@@H](Cc2ccc(O)cc2)NC(=O)CSC[C@@H](C(N)=O)NC(=O)[C@H](CC(=O)O)NC(=O)[C@H](CCC(=O)O)NC(=O)[C@H](Cc2c[nH]c3ccccc23)NC(=O)[C@@H]2CCCN2C(=O)[C@H](CO)N(C)C(=O)[C@H](C)NC(=O)[C@H](Cc2c[nH]c3ccccc23)NC(=O)[C@H](Cc2c[nH]c3ccccc23)NC(=O)[C@H](C(C)C)NC(=O)[C@H]([C@@H](C)O)NC1=O — AC50 (2,3-bisphosphoglycerate-independent phosphoglycerate mutase (gpmI, Staphylococcus aureus, UniProt Q6GIL5); enzyme activity): 38 nM
CSCC[C@H](NC(=O)[C@H](C)NC(=O)CNC(=O)[C@H](Cc1ccc(O)cc1)NC(=O)[C@H](Cc1c[nH]c2ccccc12)NC(=O)[C@H](Cc1ccccc1)NC(=O)[C@H](CO)NC(=O)CNC(=O)CNC(=O)[C@H](CC(=O)O)NC(=O)[C@H](CCC(=O)O)NC(=O)[C@H](CCC(N)=O)NC(=O)[C@@H]1CCCN1C(=O)[C@H](CCCNC(=N)N)NC(=O)[C@H](CCCNC(=N)N)NC(=O)[C@H](CCCNC(=N)N)NC(=O)[C@H](CCC(N)=O)NC(=O)[C@H](CCCNC(=N)N)NC(=O)[C@H](CCCNC(=N)N)NC(=O)[C@H](CCCCN)NC(=O)[C@H](CCCCN)NC(=O)[C@H](CCCNC(=N)N)NC(=O)CN)C(=O)N[C@@H](CCCCN)C(=O)N[C@@H](C)C(=O)N[C@@H](CC(C)C)C(=O)N[C@@H](Cc1ccc(O)cc1)C(=O)NCC(N)=O — IC50 (Calcium and integrin-binding protein 1 (CIB1, Homo sapiens, UniProt Q99828); peptide binding, inhibitor, TR-FRET competition): 192 nM
COc1ccc(C[C@H]2C(=O)N[C@@H](Cc3ccc(O)cc3)C(=O)N3CCC[C@H]3C(=O)NCC(=O)N[C@@H]([C@@H](C)O)C(=O)N[C@@H](C)C(=O)N[C@@H](CCC(N)=O)C(=O)N(C)[C@@H](Cc3ccc(O)cc3)C(=O)N[C@@H]([C@@H](C)O)C(=O)N[C@H](C(N)=O)CSCC(=O)N[C@H](Cc3ccc(O)cc3)C(=O)N[C@@H](Cc3c[nH]c4ccccc34)C(=O)N(C)[C@@H](Cc3ccc(O)cc3)C(=O)N[C@@H](CC(=O)O)C(=O)N(C)[C@@H](CO)C(=O)N(C)[C@@H](Cc3ccc(O)cc3)C(=O)N2C)cc1 — AC50 (cofactor-independent phosphoglycerate mutase (Metamycoplasma orale, UniProt A0A448ZXM1, W431C); biochemical; Mycoplasma orale): 10.2 nM
CC(C)C[C@H](NC(=O)[C@H](CC(N)=O)NC(=O)[C@H](CCCNC(=N)N)NC(=O)[C@@H](N)CS)C(=O)O — IC50 (PPO3 (Agaricus bisporus, UniProt C7FF04); enzyme activity, inhibitor): 39600 nM
COc1ccc(CNc2nc(N3CCC[C@H]3CO)ncc2C(=O)NN)cc1Cl — revertant count (Salmonella typhimurium; TA100; 62.5 µg/plate, 48 h, together with: rat liver S9): 153 ± 25
NN[C@@H](CCCC[C@H](NN)C(=O)O)C(=O)O — IC50 (4-aminobutyrate aminotransferase, mitochondrial (Rattus norvegicus, UniProt P50554); enzyme activity, inhibitor; rat brain homogenate): ~572000 nM
CC[C@H](C)[C@H](NC(=O)[C@@H](N)CC(=O)O)C(=O)N[C@H]1CSC(=O)[C@H](Cc2ccccc2)NC(=O)[C@H](Cc2ccc(O)cc2)NC(=O)[C@H](C)NC(=O)[C@H](CC(N)=O)NC1=O — IC50 (Accessory gene regulator protein C (Staphylococcus aureus, UniProt Q309Z2)): > 1000 nM
CNc1ccc2c(n1)sc1c(N3CCNCC3)nc(NC)nc12 — IC50 (Beta-glucuronidase (uidA, Escherichia coli, UniProt P05804); enzyme activity, inhibitor, absorbance; pH 7.5): 80 nM
CC(C)C[C@@H]1NC(=O)[C@H](CCCNC(=N)N)NC(=O)[C@H](CCCCN)NC(=O)[C@H](CC(=O)O)NC(=O)[C@H](CCCCN)NC(=O)[C@@H](CO)NC1=O — IC50 (Disintegrin and metalloproteinase domain-containing protein 17 (ADAM17, Homo sapiens, UniProt P78536); enzyme activity, inhibitor, fluorescence): > 10000 nM
CCCC[C@H]1C(=O)N(C)[C@@H](CCCC)C(=O)N[C@@H](CC(C)C)C(=O)N[C@H](C(=O)NCC(N)=O)CSCC(=O)N[C@@H](Cc2ccc(O)cc2)C(=O)N2CCC[C@H]2C(=O)N[C@@H](CC(N)=O)C(=O)N2[C@@H](C[C@@H]3CCCC[C@@H]32)C(=O)N[C@@H](CN)C(=O)N[C@@H](CC(C)C)C(=O)N2C[C@H](O)C[C@H]2C(=O)N[C@@H](Cc2c[nH]c3ccccc23)C(=O)N[C@@H](CCN)C(=O)N[C@@H](Cc2cn(CC(=O)O)c3ccccc23)C(=O)N1C — IC50 (Programmed cell death 1 ligand 1 (CD274, Homo sapiens, UniProt Q9NZQ7); inhibitor, TR-FRET): 18.6 nM
CC(Cc1ccccc1Sc1ccccc1)N(C)C (centres unmarked) — IC50 (Sodium-dependent dopamine transporter (SLC6A3, Homo sapiens, UniProt Q01959); transporter uptake, inhibitor, radiometric): 720 nM
COC(=O)c1ccc(-n2nc(-c3ccccc3O)nc2-c2ccccc2O)cc1 — IC50 (5-lipoxygenase): 26900 ± 3540 nM
CSCC[C@H](NC(=O)[C@H](Cc1ccccc1)NC(=O)[C@H](Cc1c[nH]cn1)NC(=O)CNC(=O)[C@@H](NC(=O)[C@H](C)NC(=O)[C@H](Cc1c[nH]c2ccccc12)NC(=O)[C@H](CCC(N)=O)NC(=O)[C@@H]1CCC(=O)N1)C(C)C)C(N)=O — IC50 (Gastrin-releasing peptide receptor (GRPR, Homo sapiens, UniProt P30550); ligand displacement in cells, radioligand): 2.69 nM

For quick reference, copied from above:
COC(=O)c1ccc(-n2nc(-c3ccccc3O)nc2-c2ccccc2O)cc1 — IC50 (5-lipoxygenase): 26900 ± 3540 nM
CSCC[C@H](NC(=O)[C@H](Cc1ccccc1)NC(=O)[C@H](Cc1c[nH]cn1)NC(=O)CNC(=O)[C@@H](NC(=O)[C@H](C)NC(=O)[C@H](Cc1c[nH]c2ccccc12)NC(=O)[C@H](CCC(N)=O)NC(=O)[C@@H]1CCC(=O)N1)C(C)C)C(N)=O — IC50 (Gastrin-releasing peptide receptor (GRPR, Homo sapiens, UniProt P30550); ligand displacement in cells, radioligand): 2.69 nM
